Measured values collected from several papers.
Each numbered part is a random draw from the data of one study; scales do not carry over between parts.
Sequence of UniProt Q9Y4K4 (whole entry, looked up): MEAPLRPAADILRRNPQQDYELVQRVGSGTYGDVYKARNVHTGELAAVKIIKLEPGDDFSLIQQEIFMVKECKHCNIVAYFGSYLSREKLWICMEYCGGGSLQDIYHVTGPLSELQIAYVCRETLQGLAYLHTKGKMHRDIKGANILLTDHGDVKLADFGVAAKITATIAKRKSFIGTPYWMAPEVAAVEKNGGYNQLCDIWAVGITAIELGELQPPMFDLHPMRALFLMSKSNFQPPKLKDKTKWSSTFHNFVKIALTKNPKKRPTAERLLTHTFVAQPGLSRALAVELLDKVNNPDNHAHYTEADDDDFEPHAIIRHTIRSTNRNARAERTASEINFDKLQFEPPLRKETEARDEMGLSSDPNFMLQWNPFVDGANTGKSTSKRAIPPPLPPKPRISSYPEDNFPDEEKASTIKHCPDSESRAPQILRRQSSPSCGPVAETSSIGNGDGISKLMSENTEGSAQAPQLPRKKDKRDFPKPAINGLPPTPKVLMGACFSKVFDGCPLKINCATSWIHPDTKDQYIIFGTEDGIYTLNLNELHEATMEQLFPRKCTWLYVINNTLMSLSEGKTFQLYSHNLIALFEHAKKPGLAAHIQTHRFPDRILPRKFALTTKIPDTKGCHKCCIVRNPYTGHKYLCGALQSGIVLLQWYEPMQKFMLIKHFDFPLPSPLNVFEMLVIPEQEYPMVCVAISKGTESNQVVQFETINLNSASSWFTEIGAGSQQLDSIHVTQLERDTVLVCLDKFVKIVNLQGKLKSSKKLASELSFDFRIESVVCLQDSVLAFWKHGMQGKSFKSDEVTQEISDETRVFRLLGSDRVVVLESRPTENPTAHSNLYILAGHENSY
Sequence of UniProt Q8IZF5 (whole entry, looked up): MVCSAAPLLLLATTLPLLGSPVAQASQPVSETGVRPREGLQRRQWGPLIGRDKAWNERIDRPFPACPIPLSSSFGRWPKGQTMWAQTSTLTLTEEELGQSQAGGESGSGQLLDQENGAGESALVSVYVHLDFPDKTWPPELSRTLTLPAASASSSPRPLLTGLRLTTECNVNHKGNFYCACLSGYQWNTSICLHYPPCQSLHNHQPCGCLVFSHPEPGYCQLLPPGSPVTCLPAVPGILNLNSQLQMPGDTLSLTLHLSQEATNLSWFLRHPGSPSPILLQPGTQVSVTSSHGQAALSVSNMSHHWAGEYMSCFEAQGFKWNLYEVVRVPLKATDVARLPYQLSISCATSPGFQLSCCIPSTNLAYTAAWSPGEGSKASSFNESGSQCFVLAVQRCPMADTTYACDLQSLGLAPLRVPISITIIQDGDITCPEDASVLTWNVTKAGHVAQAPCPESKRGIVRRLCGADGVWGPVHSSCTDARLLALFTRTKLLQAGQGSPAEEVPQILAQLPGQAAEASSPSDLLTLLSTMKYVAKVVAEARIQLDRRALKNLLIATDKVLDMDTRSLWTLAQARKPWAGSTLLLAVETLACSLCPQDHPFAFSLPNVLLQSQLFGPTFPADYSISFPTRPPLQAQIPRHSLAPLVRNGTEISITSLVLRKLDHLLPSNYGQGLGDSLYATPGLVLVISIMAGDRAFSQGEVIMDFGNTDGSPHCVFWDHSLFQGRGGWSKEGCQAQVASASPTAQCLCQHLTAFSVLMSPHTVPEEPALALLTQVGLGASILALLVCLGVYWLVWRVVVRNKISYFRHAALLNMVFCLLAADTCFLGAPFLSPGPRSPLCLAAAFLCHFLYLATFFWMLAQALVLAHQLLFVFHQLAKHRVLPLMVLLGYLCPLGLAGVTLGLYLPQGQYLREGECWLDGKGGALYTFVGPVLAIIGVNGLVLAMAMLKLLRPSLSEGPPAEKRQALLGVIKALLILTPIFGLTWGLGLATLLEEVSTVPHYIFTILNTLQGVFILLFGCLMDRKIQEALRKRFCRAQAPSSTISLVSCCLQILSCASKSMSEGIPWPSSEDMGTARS
Sequence of UniProt Q9H3Y6 (whole entry, looked up): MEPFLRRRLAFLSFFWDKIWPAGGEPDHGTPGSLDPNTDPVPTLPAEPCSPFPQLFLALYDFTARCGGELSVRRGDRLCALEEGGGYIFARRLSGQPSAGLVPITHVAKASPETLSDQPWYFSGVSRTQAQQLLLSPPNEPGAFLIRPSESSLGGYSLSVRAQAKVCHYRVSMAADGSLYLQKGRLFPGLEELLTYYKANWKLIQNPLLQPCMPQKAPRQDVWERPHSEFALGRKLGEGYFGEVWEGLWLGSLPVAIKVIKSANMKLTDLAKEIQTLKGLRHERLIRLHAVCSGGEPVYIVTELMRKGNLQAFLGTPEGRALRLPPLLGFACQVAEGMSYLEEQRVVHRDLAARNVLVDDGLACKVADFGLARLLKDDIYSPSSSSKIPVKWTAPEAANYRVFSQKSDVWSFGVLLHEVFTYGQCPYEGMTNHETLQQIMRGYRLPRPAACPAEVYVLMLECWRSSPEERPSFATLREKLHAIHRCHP
Sequence of UniProt Q86UX6 (whole entry, looked up): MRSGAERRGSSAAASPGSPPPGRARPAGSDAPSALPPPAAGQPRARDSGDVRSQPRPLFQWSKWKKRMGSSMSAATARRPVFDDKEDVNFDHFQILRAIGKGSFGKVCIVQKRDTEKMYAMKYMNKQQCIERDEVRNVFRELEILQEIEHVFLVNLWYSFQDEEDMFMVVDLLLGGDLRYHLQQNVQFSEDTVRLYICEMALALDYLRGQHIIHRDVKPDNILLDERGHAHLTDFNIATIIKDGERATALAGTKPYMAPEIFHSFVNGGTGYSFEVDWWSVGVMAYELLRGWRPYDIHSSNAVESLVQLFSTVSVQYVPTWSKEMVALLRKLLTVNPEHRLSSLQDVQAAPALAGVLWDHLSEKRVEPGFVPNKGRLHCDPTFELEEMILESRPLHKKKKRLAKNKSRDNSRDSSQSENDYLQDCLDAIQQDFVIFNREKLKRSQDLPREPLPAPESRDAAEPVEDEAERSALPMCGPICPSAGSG
Sequence of UniProt P21452 (whole entry, looked up): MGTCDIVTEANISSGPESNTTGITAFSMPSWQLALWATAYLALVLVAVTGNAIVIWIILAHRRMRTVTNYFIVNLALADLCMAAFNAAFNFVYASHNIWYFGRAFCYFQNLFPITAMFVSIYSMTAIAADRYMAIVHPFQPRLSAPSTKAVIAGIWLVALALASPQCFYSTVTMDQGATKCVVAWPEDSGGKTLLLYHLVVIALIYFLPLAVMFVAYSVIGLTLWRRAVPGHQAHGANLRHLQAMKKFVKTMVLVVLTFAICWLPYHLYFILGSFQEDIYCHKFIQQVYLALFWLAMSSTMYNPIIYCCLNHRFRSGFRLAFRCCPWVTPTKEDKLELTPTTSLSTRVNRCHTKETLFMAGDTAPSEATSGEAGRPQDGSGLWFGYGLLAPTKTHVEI
Sequence of UniProt Q92633 (whole entry, looked up): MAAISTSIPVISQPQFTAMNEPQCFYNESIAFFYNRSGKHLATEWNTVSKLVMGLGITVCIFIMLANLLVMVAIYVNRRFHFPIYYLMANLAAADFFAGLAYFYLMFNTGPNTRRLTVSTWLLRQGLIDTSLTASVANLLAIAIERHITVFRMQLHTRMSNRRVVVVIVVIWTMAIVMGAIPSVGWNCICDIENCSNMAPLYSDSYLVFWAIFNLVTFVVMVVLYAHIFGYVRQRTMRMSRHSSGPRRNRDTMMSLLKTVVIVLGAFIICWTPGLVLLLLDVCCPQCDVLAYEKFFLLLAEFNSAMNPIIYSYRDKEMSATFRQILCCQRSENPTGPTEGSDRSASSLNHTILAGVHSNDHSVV

Block 1 — SMILES: CC(C)CN(C)c1nc(N)c(C(=O)N=C(N)N)nc1Cl; read-out: β-arrestin recruitment; action: agonist; method: PRESTO-Tango; tested at: 10 µM; baseline: untreated
| target | fold over basal |
| --- | --- |
| Neuropeptide FF receptor 1 (NPFFR1, Homo sapiens, UniProt Q9GZQ6) | 0.72 |
| Lysophosphatidic acid receptor 1 (LPAR1, Homo sapiens, UniProt Q92633) | 1.09 |
| Substance-K receptor (TACR2, Homo sapiens, UniProt P21452) | 0.7 fold |
| Probable G-protein coupled receptor 173 (GPR173, Homo sapiens, UniProt Q9NS66) | 1.09 |
| Cholecystokinin receptor type A (CCKAR, Homo sapiens, UniProt P32238) | 0.82 |
| Adhesion G-protein coupled receptor F3 (ADGRF3, Homo sapiens, UniProt Q8IZF5) | 1.68 |
| Adhesion G protein-coupled receptor F5 (ADGRF5, Homo sapiens, UniProt Q8IZF2) | 0.95 |
| G-protein coupled receptor 62 (GPR62, Homo sapiens, UniProt Q9BZJ7) | 1.24 |
| ADGRG6 (Homo sapiens, UniProt Q86SQ4) | 1.07 |
| 5-hydroxytryptamine receptor 2A (HTR2A, Homo sapiens, UniProt P28223) | 0.26 |
| Metabotropic glutamate receptor 4 (GRM4, Homo sapiens, UniProt Q14833) | 0.86 fold |
| P2Y purinoceptor 11 (P2RY11, Homo sapiens, UniProt Q96G91) | 1.35 |
| Neurotensin receptor type 1 (NTSR1, Homo sapiens, UniProt P30989) | 1.03 |
| Follicle-stimulating hormone receptor (FSHR, Homo sapiens, UniProt P23945) | 0.75 fold |
| Hydroxycarboxylic acid receptor 3 (HCAR3, Homo sapiens, UniProt P49019) | 1.05 fold |

Block 2 — read-out: cell-free assay; method: competition with immobilised ligand; tested at: 1 µM
Compound: COc1ccc2c(c1)O[C@H](c1ccc(OC)c(OC)c1)C[C@@H]2NC(=O)C1(c2ccc3c(c2)OC(F)(F)O3)CC1
| target | remaining binding [%] |
| --- | --- |
| Tyrosine-protein kinase Srms (SRMS, Homo sapiens, UniProt Q9H3Y6) | 87 |
| Mitogen-activated protein kinase kinase kinase 1 (MAP3K1, Homo sapiens, UniProt Q13233) | 100 |
| Ephrin type-A receptor 3 (EPHA3, Homo sapiens, UniProt P29320) | 100 |
| Wee1-like protein kinase 2 (WEE2, Homo sapiens, UniProt P0C1S8) | 100 |
| cAMP-dependent protein kinase catalytic subunit alpha (PRKACA, Homo sapiens, UniProt P17612) | 100 |
| Insulin receptor-related protein (INSRR, Homo sapiens, UniProt P14616) | 100 |
| Receptor tyrosine-protein kinase erbB-2 (ERBB2, Homo sapiens, UniProt P04626) | 100 |
| Interleukin-1 receptor-associated kinase 4 (IRAK4, Homo sapiens, UniProt Q9NWZ3) | 100 |
| Serine/threonine-protein kinase tousled-like 1 (TLK1, Homo sapiens, UniProt Q9UKI8) | 100 |
| Serine/threonine-protein kinase 32C (STK32C, Homo sapiens, UniProt Q86UX6) | 84 |
| Serine/threonine-protein kinase 17A (STK17A, Homo sapiens, UniProt Q9UEE5) | 100 |
| Tyrosine-protein kinase ABL1, non-phosphorylated (ABL1, Homo sapiens, UniProt P00519, Q252H) | 100 |
| Proto-oncogene tyrosine-protein kinase receptor Ret (RET, Homo sapiens, UniProt P07949, V804L) | 87 |
| Serine/threonine-protein kinase pim-1 (PIM1, Homo sapiens, UniProt P11309) | 100 |
| MAP/microtubule affinity-regulating kinase 3 (MARK3, Homo sapiens, UniProt P27448) | 95 |
| Epidermal growth factor receptor (EGFR, Homo sapiens, UniProt P00533) | 92 |
| TRAF2 and NCK-interacting protein kinase (TNIK, Homo sapiens, UniProt Q9UKE5) | 100 |
| Cyclin-dependent kinase-like 1 (CDKL1, Homo sapiens, UniProt Q00532) | 83 |
| Tyrosine-protein kinase ABL1, phosphorylated (ABL1, Homo sapiens, UniProt P00519, F317L) | 100 |
| Mast/stem cell growth factor receptor Kit, autoinhibited (KIT, Homo sapiens, UniProt P10721) | 99 |
| Mitogen-activated protein kinase kinase kinase kinase 5 (MAP4K5, Homo sapiens, UniProt Q9Y4K4) | 100 |
| Vascular endothelial growth factor receptor 2 (KDR, Homo sapiens, UniProt P35968) | 88 |

Block 3 — action: inhibitor; tested at: 10 µM; baseline: control
Target: Diamine acetyltransferase 1 (Homo sapiens, UniProt P21673)
Construct (P21673 1-171): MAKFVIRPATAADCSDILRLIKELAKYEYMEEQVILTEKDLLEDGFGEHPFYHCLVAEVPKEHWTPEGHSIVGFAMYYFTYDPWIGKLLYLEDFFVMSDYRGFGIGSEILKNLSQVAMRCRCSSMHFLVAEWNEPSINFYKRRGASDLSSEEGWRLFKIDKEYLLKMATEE
| Structure (SMILES) | remaining activity |
| --- | --- |
| Nc1ncnc2c1ncn2[C@@H]1O[C@H](COP(=O)(O)O)[C@@H](O)[C@H]1O | 86.6% |
| N[C@@H](Cc1ccccc1)C(=O)O | 100% |
| COc1c(O)cc2c(c1O)C(=O)c1c(cc(C)c(O)c1OC)C2=O | 109% |
| COc1c(O[C@@H]2O[C@H](CO)[C@@H](O)[C@H](O)[C@H]2O)cc2c(c1O)C(=O)c1c(cc(C)c(O)c1OC)C2=O | 132% |
| OC1c2ccccc2-c2ccccc21 | 89.4% |
| CC(C)CNC(=O)/C=C/C=C/c1ccc2c(c1)OCO2 | 103% |
| COc1cc2ccc(=O)oc2cc1O | 78.5% |
| O=C1C[C@@H](c2ccc(O)cc2)Oc2cc(O[C@@H]3O[C@H](CO)[C@@H](O)[C@H](O)[C@H]3O)ccc21 | 83.1% |
| CC1(C)CC[C@]2(C(=O)O)CC[C@]3(C)C(=CC[C@@H]4[C@@]5(C)CCC(=O)C(C)(C)[C@@H]5CC[C@]43C)[C@@H]2C1 | 102% |
| COc1c(O)cc2oc3cc(O)c(CC=C(C)C)c(O)c3c(=O)c2c1CC=C(C)C | 104% |
| CCOC(=O)/C=C/c1ccc(O)c(O)c1 | 110% |
| COc1ccccc1C=O | 95.3% |
| C=C(CCC(C(=O)O)[C@H]1[C@H](O)C[C@@]2(C)C3=CC[C@H]4C(C)(C)[C@@H](OC(C)=O)CC[C@]4(C)C3=CC[C@]12C)C(C)C (stereo partly shown) | 87.6% |
| COc1cc(O)c2c(c1)CCc1cc(O)ccc1-2 | 85.4% |
| COc1cc(CCC(=O)CC(O)CCc2ccc(O)c(OC)c2)ccc1O (stereo not shown) | 90.1% |
| Oc1cc(O)cc(CCc2ccccc2)c1 | 93% |
| CSCC[C@H](N)C(=O)O | 105% |

Block 4 — cell line: HaCaT; tested at: 100 µM; time: 18 h
| SMILES | viability [%] |
| --- | --- |
| Cc1nc2n(c(=O)c1CCN1CCC(c3noc4cc(F)ccc34)CC1)CCCC2O (stereo not shown) | 112 |
| O=C(O)CCCc1ccccc1 | 116 |
| Cc1cn(-c2cc(NC(=O)c3ccc(C)c(Nc4nccc(-c5cnccn5)n4)c3)cc(C(F)(F)F)c2)cn1 | 60.8 |
| COc1ccnc(C[S+]([O-])c2nc3cc(-n4cccc4)ccc3[nH]2)c1C (stereo not shown) | 67.1 |
| S=C1SCN(Cc2ccccc2)CN1Cc1ccccc1 | 68.3 |
| N#C/C(=C1/SC[C@@H](c2ccc(Cl)cc2Cl)S1)n1ccnc1 | 42.8 |
| Cn1c(=O)c2c(ncn2CC(=O)O)n(C)c1=O | 110 |
| O=C(O)c1cc(-c2ccccc2)nc2ccccc12 | 80.1 |
| CC(C)=CCC[C@](C)(O[C@@H]1O[C@H](CO[C@@H]2O[C@@H](CO)[C@H](O)[C@H]2O)[C@@H](O)[C@H](O)[C@H]1O)[C@H]1CC[C@]2(C)[C@@H]1[C@H](O)C[C@@H]1[C@@]3(C)CC[C@H](O[C@@H]4O[C@H](CO)[C@@H](O)[C@H](O)[C@H]4O[C@@H]4O[C@H](CO)[C@@H](O)[C@H](O)[C@H]4O)C(C)(C)[C@@H]3CC[C@]12C | 108 |
| N=C(N)c1ccc(/N=N/Nc2ccc(C(=N)N)cc2)cc1 | 120 |
| CC1=C(/C=C/C(C)=C/C=C/C(C)=C/CO)C(C)(C)CCC1 | 78.7 |
| COC1=CC(=O)C[C@@H](C)[C@]12Oc1c(Cl)c(OC)cc(OC)c1C2=O | 88.4 |
| CC(C(=O)O)c1ccc2c(c1)Cc1cccnc1O2 (stereo not shown) | 98.6 |
| CN(C)CCCOc1nn(Cc2ccccc2)c2ccccc12 | 89.2 |
| CN1C(=O)OC(C)(C)C1=O | 108 |
| CCNC(=O)[C@@H]1CCCN1C(=O)[C@H](CCCNC(=N)N)NC(=O)[C@H](CC(C)C)NC(=O)[C@@H](C)NC(=O)[C@H](Cc1ccc(O)cc1)NC(=O)[C@H](CO)NC(=O)[C@H](Cc1c[nH]c2ccccc12)NC(=O)[C@H](Cc1c[nH]cn1)NC(=O)[C@@H]1CCC(=O)N1 | 117 |

A few entries again (block 1):
| target | fold over basal |
| --- | --- |
| Probable G-protein coupled receptor 173 (GPR173, Homo sapiens, UniProt Q9NS66) | 1.09 |
| Lysophosphatidic acid receptor 1 (LPAR1, Homo sapiens, UniProt Q92633) | 1.09 |
| Neurotensin receptor type 1 (NTSR1, Homo sapiens, UniProt P30989) | 1.03 |
| ADGRG6 (Homo sapiens, UniProt Q86SQ4) | 1.07 |
| P2Y purinoceptor 11 (P2RY11, Homo sapiens, UniProt Q96G91) | 1.35 |
